# Measured values pooled from the literature.
# Each numbered part is a random draw from the data of one study; scales do not carry over between parts. “And” joins repeats or separate records; there may be more than shown.
# Sequence of UniProt P00519 (whole entry, unmodified, looked up): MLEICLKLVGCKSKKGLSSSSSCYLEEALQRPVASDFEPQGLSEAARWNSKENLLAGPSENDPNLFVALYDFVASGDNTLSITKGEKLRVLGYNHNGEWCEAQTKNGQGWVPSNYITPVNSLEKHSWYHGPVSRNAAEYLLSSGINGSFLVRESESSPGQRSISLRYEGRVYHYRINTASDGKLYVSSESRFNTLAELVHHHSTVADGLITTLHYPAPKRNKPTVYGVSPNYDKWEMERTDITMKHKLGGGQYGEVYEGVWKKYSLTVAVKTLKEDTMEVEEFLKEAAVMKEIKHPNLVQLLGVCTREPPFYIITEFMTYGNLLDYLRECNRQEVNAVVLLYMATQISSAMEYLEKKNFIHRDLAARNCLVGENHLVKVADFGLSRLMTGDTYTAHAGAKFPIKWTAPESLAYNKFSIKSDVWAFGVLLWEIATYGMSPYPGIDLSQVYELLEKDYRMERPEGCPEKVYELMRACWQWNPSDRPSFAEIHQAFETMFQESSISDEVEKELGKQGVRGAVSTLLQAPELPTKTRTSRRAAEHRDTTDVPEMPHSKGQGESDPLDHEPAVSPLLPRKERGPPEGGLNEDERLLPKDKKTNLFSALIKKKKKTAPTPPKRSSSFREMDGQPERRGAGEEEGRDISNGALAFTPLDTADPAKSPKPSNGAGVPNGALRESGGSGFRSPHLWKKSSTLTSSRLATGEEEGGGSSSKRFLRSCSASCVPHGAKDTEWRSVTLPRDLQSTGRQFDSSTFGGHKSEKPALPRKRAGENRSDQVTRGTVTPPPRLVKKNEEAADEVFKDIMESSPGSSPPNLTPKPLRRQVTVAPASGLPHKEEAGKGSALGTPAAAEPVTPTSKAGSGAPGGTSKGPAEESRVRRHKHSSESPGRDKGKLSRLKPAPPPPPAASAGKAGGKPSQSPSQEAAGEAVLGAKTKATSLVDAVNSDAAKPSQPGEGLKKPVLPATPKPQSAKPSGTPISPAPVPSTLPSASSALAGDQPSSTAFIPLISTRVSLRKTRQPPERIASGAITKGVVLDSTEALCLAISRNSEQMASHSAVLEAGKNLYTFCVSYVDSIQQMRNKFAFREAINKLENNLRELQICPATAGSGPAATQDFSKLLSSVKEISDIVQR
# Sequence of UniProt P36894 (whole entry, looked up): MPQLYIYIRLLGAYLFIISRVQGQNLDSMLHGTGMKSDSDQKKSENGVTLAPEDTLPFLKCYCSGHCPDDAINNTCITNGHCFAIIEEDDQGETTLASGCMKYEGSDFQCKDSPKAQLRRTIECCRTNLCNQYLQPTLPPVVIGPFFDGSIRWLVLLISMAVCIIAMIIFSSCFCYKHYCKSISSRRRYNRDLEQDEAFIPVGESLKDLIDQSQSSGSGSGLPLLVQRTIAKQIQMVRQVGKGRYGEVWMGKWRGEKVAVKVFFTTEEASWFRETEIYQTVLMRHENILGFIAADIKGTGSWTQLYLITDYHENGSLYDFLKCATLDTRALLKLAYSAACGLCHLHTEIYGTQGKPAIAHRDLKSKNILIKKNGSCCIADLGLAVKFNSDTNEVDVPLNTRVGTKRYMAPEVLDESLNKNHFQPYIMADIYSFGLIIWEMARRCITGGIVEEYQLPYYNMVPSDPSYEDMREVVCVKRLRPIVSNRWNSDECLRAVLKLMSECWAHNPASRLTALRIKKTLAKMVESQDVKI
# Sequence of UniProt P42336 (whole entry, unmodified, looked up): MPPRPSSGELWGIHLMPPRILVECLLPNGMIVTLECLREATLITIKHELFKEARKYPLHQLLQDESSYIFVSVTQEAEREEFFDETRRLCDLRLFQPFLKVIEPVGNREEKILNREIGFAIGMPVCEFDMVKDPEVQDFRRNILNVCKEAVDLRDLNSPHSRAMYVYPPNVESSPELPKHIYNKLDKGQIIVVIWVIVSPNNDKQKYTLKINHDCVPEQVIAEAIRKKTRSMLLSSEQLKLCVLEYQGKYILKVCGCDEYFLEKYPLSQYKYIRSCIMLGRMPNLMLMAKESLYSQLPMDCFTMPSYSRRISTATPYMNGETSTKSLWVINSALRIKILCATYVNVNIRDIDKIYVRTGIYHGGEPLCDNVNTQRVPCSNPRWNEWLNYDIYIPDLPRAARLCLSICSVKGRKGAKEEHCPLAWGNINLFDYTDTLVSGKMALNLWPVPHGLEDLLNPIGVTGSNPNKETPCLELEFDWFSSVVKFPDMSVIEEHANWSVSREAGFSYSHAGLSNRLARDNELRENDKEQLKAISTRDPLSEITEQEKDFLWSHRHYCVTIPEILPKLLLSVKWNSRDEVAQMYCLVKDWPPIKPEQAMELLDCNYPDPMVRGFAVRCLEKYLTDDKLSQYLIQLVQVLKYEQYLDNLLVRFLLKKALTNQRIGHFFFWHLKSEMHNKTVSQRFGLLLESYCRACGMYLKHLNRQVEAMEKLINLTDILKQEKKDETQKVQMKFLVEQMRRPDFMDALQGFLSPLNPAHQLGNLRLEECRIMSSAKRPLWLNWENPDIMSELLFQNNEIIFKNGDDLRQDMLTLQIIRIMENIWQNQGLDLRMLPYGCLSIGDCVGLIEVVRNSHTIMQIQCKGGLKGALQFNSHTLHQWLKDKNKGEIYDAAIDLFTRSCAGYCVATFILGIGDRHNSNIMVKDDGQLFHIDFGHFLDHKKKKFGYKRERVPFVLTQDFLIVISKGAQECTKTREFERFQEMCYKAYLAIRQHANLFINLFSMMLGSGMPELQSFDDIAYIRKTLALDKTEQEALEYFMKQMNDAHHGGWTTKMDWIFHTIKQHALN
# Sequence of UniProt Q8IVH8 (whole entry, looked up): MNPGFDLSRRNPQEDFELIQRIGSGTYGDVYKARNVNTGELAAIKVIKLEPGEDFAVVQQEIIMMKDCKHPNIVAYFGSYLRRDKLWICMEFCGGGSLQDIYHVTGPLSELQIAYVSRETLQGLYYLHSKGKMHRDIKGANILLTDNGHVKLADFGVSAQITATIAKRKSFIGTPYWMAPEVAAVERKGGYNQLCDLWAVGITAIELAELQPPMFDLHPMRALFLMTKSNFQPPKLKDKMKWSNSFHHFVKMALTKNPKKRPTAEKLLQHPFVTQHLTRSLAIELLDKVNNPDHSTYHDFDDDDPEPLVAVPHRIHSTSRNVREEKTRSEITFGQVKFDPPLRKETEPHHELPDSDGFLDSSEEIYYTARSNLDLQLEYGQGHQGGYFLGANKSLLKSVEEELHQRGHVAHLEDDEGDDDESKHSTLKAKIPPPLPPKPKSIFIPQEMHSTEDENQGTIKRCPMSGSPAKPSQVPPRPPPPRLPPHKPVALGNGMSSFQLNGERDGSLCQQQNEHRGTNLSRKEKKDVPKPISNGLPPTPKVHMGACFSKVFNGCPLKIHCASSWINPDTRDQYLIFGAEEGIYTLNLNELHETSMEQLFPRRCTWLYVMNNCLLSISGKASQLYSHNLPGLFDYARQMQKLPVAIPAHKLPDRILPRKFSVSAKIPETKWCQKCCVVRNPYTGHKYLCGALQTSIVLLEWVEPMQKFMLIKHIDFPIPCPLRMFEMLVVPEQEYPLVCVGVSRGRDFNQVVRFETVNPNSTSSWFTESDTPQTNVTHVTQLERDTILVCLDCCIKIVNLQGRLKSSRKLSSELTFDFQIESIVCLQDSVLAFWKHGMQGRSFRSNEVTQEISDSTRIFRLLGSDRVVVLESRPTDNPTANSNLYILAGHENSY
# Sequence of UniProt P53667 (whole entry, looked up): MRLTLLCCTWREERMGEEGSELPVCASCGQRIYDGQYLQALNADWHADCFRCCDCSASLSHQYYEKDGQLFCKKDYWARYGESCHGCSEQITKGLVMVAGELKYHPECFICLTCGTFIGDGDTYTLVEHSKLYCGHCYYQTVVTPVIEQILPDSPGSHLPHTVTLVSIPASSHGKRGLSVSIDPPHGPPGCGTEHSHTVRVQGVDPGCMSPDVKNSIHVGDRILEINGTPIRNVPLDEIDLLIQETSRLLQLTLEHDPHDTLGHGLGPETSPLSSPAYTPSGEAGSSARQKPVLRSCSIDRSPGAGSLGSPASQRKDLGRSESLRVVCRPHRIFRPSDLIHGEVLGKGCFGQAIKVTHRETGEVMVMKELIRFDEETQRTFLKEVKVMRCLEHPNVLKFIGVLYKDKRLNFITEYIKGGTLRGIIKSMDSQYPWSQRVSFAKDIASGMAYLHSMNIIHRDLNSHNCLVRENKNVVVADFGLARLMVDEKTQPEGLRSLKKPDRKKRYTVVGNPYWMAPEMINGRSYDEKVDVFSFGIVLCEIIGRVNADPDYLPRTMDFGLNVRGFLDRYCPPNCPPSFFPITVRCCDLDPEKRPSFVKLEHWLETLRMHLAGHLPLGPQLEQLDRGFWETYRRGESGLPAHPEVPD

# Study 1
# Compound: CC(=O)Nc1c(C(C)=O)c(=O)n(C)c2nc(-c3ccc(Cl)cc3Cl)c(-c3ccc(Cl)cc3)cc12
# Tested at: 1 µM
target,test,remaining binding
"MAP4K3 (Homo sapiens, UniProt Q8IVH8)","cell-free assay, competition with immobilised ligand",100%
"BUB1 (Homo sapiens, UniProt O43683)","cell-free assay, competition with immobilised ligand",92%
"BMPR1A (Homo sapiens, UniProt P36894)","binding, competition with immobilised ligand",85%
"Ribosomal protein S6 kinase alpha-5, C-terminal kinase domain (RPS6KA5, Homo sapiens, UniProt O75582)","cell-free assay, competition with immobilised ligand",86%
"GSK3A (Homo sapiens, UniProt P49840)","cell-free assay, competition with immobilised ligand",100%
"PIP5K1A (Homo sapiens, UniProt Q99755)","cell-free assay, competition with immobilised ligand",100%
"TYRO3 (Homo sapiens, UniProt Q06418)","cell-free assay, competition with immobilised ligand",68%
"PKMYT1 (Homo sapiens, UniProt Q99640)","cell-free assay, competition with immobilised ligand",100%
"Tyrosine-protein kinase ABL1, phosphorylated (ABL1, Homo sapiens, UniProt P00519, F317I)",binding,94%
"MERTK (Homo sapiens, UniProt Q12866)","cell-free assay, competition with immobilised ligand",100%
"PIK3CA (Homo sapiens, UniProt P42336, E545K)","cell-free assay, competition with immobilised ligand",79%
"LIM domain kinase 1 (LIMK1, Homo sapiens, UniProt P53667)","cell-free assay, competition with immobilised ligand",100%
"MAPK6 (Homo sapiens, UniProt Q16659)","cell-free assay, competition with immobilised ligand",100%
"CSNK1G2 (Homo sapiens, UniProt P78368)","cell-free assay, competition with immobilised ligand",100%
"IGF1R (Homo sapiens, UniProt P08069)","cell-free assay, competition with immobilised ligand",100%
"MAPK3 (Homo sapiens, UniProt P27361)","cell-free assay, competition with immobilised ligand",100%
"FLT3 (Homo sapiens, UniProt P36888, R834Q)","cell-free assay, competition with immobilised ligand",100%
"DAPK2 (Homo sapiens, UniProt Q9UIK4)","cell-free assay, competition with immobilised ligand",100%
"FLT3 (Homo sapiens, UniProt P36888, N841I)","cell-free assay, competition with immobilised ligand",100%
"STK35 (Homo sapiens, UniProt Q8TDR2)","cell-free assay, competition with immobilised ligand",100%

# Study 2
# SMILES: COc1cc(C(=O)N2CCC(N3CCN(C)CC3)CC2)ccc1Nc1ncc2c(n1)N(C)c1ccccc1C(=O)N2C
target,test,test system,conditions,inhibition [%]
ATR (mouse),"probe labelling, KiNativ, measured: FYIMMCkPK peptide, ATP site",brain tissue lysate (mouse),"1 µM, added: ATP acyl-phosphate probe",3.6
"MAP/microtubule affinity-regulating kinase 3 (Mark3, Mus musculus, UniProt Q03141)",KiNativ profiling,mouse brain lysate,"0.1 µM, LYS1 site, added: ADP acyl phosphate probe",-2.4
YANK3,,,0.1 µM,-3.6
MLKL (mouse),"probe labelling, KiNativ ADP probe",mouse brain lysate,"0.1 µM, LYS1 labelled site",-2.6

# Study 3
# Target: Beta-1 adrenergic receptor (ADRB1, Homo sapiens, UniProt P08588)
# Sequence of UniProt P08588 (whole entry, looked up): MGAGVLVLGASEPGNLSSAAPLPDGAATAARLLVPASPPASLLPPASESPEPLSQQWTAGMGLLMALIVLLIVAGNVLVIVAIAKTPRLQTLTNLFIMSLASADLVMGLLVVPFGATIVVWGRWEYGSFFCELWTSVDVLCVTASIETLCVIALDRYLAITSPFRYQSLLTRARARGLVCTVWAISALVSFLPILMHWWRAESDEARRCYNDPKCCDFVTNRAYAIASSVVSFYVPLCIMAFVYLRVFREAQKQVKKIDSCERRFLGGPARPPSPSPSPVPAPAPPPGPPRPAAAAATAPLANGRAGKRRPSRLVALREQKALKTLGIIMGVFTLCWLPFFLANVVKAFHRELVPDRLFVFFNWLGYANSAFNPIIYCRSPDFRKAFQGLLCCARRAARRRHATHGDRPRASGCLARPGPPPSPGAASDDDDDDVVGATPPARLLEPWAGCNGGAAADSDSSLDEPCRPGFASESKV
# Mode: antagonist
SMILES,IC50
CN1Cc2sccc2C(c2ccc(O)c(O)c2)C1 (stereo not shown),≥ 100 µM
O=C(CCc1ccccc1)Nc1ccc([C@@H](O)[C@H]2COCC(=O)N2Cc2ccncc2)cc1,≥ 100 µM
C[C@@H]([C@@H](O)c1ccc(O)cc1)N1CCC(O)(c2ccccc2)CC1,≥ 100 µM
CC1(C)CC(=O)c2cc(C(=O)Nc3cccc4ccccc34)c(O)nc2C1,≥ 100 µM
COc1ccccc1N1CCN(CCCCN[S+](=O)([O-])c2cccc3c(N(C)C)cccc23)CC1,≥ 100 µM

# Study 4
# Cell line: mouse MPNST tumor cells
# Method: high-content nuclear imaging
# Measured: cell number
# Tested at: 10 µM
# Time: 12 h
# Setting: mean of 2 replicates
# Baseline: plate mean
# Reading: higher = more cells
Compound,nuclei count [z-score]
Cc1cc(NCCO)nc(-c2ccc(Br)cc2)n1,1.15
COc1ccc2cccc(N3CCN(CCNC(=O)c4ccc(F)cc4)CC3)c2c1,-0.283
CCOc1cc2ncc(C#N)c(Nc3ccc(F)c(Cl)c3)c2cc1NC(=O)/C=C/CN(C)C,-5.99
Cc1c(O)c(=O)n(-c2ccccc2)n1C,0.785
CCCCNC(=O)NS(=O)(=O)c1ccc(C)cc1,-0.0287
N=C(NC(=O)c1nc(Cl)c(N)nc1N)Nc1ccccc1,2.72

# Study 5
# Host: mouse
# Sample: microsomes or S9
# Tested at: 2 µM
# Time: 0.5 h
SMILES,remaining compound [%]
CCOc1cc2c(cc1C1CC(=O)NCc3nc4sccn4c31)CCC2 (stereo not shown),7.94
CN(C(=O)CN1C(=O)COc2cc(Cl)c(Cl)cc21)C(CN1CCCC1)c1ccc(-c2ccnc(Cl)c2)cc1 (stereo not shown),> 100
CC(C)Oc1ccc(CNC(=O)NC2CCCCNC2=O)cn1 (stereo not shown),> 100
O=C(CN1CCCC1Cn1cccn1)Nc1ccccc1-n1ccnc1 (stereo not shown),46.2
O=C(c1ccccc1C1CCNC1)N1CCC2(C=Cc3ccccc32)CC1 (stereo not shown),43.5
CC1CCc2cc(F)ccc2N1S(=O)(=O)c1cc(Cl)ccc1Cl (stereo not shown),99.1
CCNS(=O)(=O)c1cc(-c2ccc(=O)[nH]n2)sc1C,91

# Other studies, line by line
Compound,test,test system,conditions,how to read,endpoint,value
CC(=O)N[C@@H](Cc1c[nH]c2ccccc12)C(=O)N[C@@H](CCC(=O)C=[N+]=[N-])C(=O)OC(C)C,UPLC-MS/MS,"EL4 tumor, C57BL/6 CES1-/- mice, tumor","subcutaneous, 0.3 mg/kg DON equivalent daily, 5 days",higher = more metabolite,succinate level,4.2e+07 a.u. and 3.43e+07 a.u. and 6.69e+07 a.u. and 5.93e+07 a.u. and 6.11e+07 a.u. and 4.21e+07 a.u.

# Excerpt of the above (study 1):
target,test,remaining binding
"BUB1 (Homo sapiens, UniProt O43683)","cell-free assay, competition with immobilised ligand",92%
"LIM domain kinase 1 (LIMK1, Homo sapiens, UniProt P53667)","cell-free assay, competition with immobilised ligand",100%
